Published values collected from several papers.
Several values in a cell are separate wells, animals, samples, runs or records. Numbers after ± are the reported error.

SMILES = COc1ccc(C(=O)CCc2cc(C(CCc3ccc(O)cc3OC)c3ccc(O)cc3)c(O)cc2OC)cc1 (racemic); system = human blood; setting = 0.3 µM, together with: A23187; quantity = TXB2 level; result = 763 ± 239 pg/mL
SMILES = CN1CCC[C@]1(C)/C=C/S(=O)(=O)NC(=O)Nc1c2c(cc3c1CCC3)CCC2; system = human, whole blood ex vivo; setting = 250 mg single dose, 24 h, single ascending dose, together with: LPS and ATP; quantity = IL-18 inhibition; result = 98.7%
SMILES = COC1OC(C)C(OC2OC(C)C(O)C(OC3OC(C)C(OC4OC(C)C(O)C(OC5OC(C)C(OC6OC(C)C(O)C(OC7OC(C)C(OC8OC(C)C(O)C(OC9OC(C)C(OC%10OC(C)C(O)C(OS(=O)(=O)O)C%10OS(=O)(=O)O)C(OS(=O)(=O)O)C9OS(=O)(=O)O)C8OS(=O)(=O)O)C(OS(=O)(=O)O)C7OS(=O)(=O)O)C6OS(=O)(=O)O)C(OS(=O)(=O)O)C5OS(=O)(=O)O)C4OS(=O)(=O)O)C(OS(=O)(=O)O)C3OS(=O)(=O)O)C2OS(=O)(=O)O)C(OS(=O)(=O)O)C1OS(=O)(=O)O (centres unmarked); system = human plasma; setting = 64 µg/mL; quantity = activated partial thromboplastin time; result = 84.3 s and 83.5 s
SMILES = CN1CCCNC(=O)c2cccc(c2)C(=O)NCCCN(C)CCCNc2cccc3c2C(=O)c2cccc(c2C3=O)NCCC1; target or system = SAS; assay = RNA-Seq, measured: VRK1 mRNA; setting = 1 µM, 6 h; scale = reference: untreated cells; quantity = log2 fold change; result = 0.464
SMILES = CC(=O)[O-].O.[Cu+2].[O-]c1ccc(Br)cc1C=NCCN1CCOCC1; assay = DPPH radical scavenging; setting = 120 µM; quantity = inhibition; result = 36.6%
SMILES = Nc1nc2cc(CC[C@H]3C[C@@H](n4ccc5c(N)ncnc54)[C@H](O)[C@@H]3O)ccc2cc1Br; system = NCI-H441 xenograft, mouse; setting = 3.0 mg/kg/day, day 38; quantity = tumour volume; result = 128 ± 20 mm3
SMILES = COC1OC(C)C(OS(=O)(=O)O)C(OC2OC(C)C(OS(=O)(=O)O)C(OC3OC(C)C(OS(=O)(=O)O)C(OC4OC(C)C(OS(=O)(=O)O)C(OC5OC(C)C(OS(=O)(=O)O)C(OC6OC(C)C(OS(=O)(=O)O)C(OC7OC(C)C(OS(=O)(=O)O)C(OC8OC(C)C(OS(=O)(=O)O)C(OC9OC(C)C(OS(=O)(=O)O)C(OC%10OC(C)C(OS(=O)(=O)O)C(OS(=O)(=O)O)C%10OS(=O)(=O)O)C9OS(=O)(=O)O)C8OS(=O)(=O)O)C7OS(=O)(=O)O)C6OS(=O)(=O)O)C5OS(=O)(=O)O)C4OS(=O)(=O)O)C3OS(=O)(=O)O)C2OS(=O)(=O)O)C1OS(=O)(=O)O (centres unmarked); system = human plasma; setting = 32 µg/mL; quantity = activated partial thromboplastin time; result = 95 s and 97.2 s and 101 s
SMILES = CN(C)C(=O)CNC(=O)c1ccc([C@H]2[C@@H](F)[C@@H](F)C[C@@H](F)[C@H]2F)cc1; assay = liver microsome stability; system = mouse liver microsomes; setting = 1 µM; quantity = hepatic clearance; result = 14 mL/min/kg
SMILES = CCC(=O)N[C@@H](C)C(=O)OCC(=O)N[C@@H](C)C(=O)O; system = water; setting = pH 8, 25 °C; quantity = chain scission rate constant; result = 0.0154 h⁻¹
SMILES = NS(=O)(=O)c1cccc(-c2ccc([C@H]3[C@@H](F)[C@@H](F)C[C@@H](F)[C@H]3F)cc2)c1; assay = liver microsome stability; system = cynomolgus liver microsomes; setting = 1 µM; quantity = hepatic clearance; result = 12 mL/min/kg
SMILES = COC1OC(C)C(OC2OC(C)C(O)C(OC3OC(C)C(OC4OC(C)C(O)C(OC5OC(C)C(OC6OC(C)C(O)C(OC7OC(C)C(OC8OC(C)C(O)C(OC9OC(C)C(OC%10OC(C)C(O)C(OC%11OC(C)C(O)C(OS(=O)(=O)O)C%11OS(=O)(=O)O)C%10OS(=O)(=O)O)C(OS(=O)(=O)O)C9OS(=O)(=O)O)C8OS(=O)(=O)O)C(OS(=O)(=O)O)C7OS(=O)(=O)O)C6OS(=O)(=O)O)C(OS(=O)(=O)O)C5OS(=O)(=O)O)C4OS(=O)(=O)O)C(OS(=O)(=O)O)C3OS(=O)(=O)O)C2OS(=O)(=O)O)C(OS(=O)(=O)O)C1OS(=O)(=O)O (centres unmarked); system = human plasma; setting = 64 µg/mL; quantity = activated partial thromboplastin time; result = 92.1 s and 93.2 s and 92.9 s
SMILES = C=C(NC(=O)c1csc(-c2nc3c(cc2O)-c2nc(cs2)C(=O)NC(C(C)O)C(=O)NC(=C(C)OC)c2nc(cs2)C(=O)NC2c4nc(cs4)C(=O)NC(COC(=O)c4c5c6c(cccc6n4O)COC(=O)C(OC4CC(C)(O)C(N(C)C)C(C)O4)C2OC5)c2nc-3cs2)n1)C(N)=O (centres unmarked); system = ICR mice, Streptococcus pneumoniae ATCC 49169 infected, immunocompromised, blood; setting = intravenous, 32 mg/kg three times daily; quantity = AUC(0-t); result = 2.02 µM·h
SMILES = CC(C)C[C@H](NC(=O)[C@H](Cc1ccccc1)NC(=O)[C@H](C)NC(=O)[C@@H](CS)NC(=O)CNC(=O)[C@H](N)CO)C(=O)N[C@@H](CO)C(=O)N[C@H](C(=O)N[C@@H](CCCCN)C(=O)N[C@@H](CCCCN)C(=O)N[C@@H](CCC(N)=O)C(=O)N[C@@H](Cc1ccccc1)C(=O)N[C@@H](CCC(=O)O)C(=O)N[C@@H](CCC(=O)O)C(=O)N[C@@H](CC(C)C)C(=O)N[C@H](C(=O)N[C@@H](CC(C)C)C(=O)NCC(=O)N[C@@H](CCC(=O)O)C(=O)N[C@@H](Cc1ccccc1)C(=O)N[C@@H](CC(C)C)C(=O)N[C@H](CCCCN)C(=O)N[C@H](CC(C)C)C(=O)N[C@H](CC(=O)O)C(=O)N[C@@H](CCCNC(=N)N)C(=O)N[C@H](CCCNC(=N)N)C(=O)N[C@@H](CCCNC(=N)N)C(=O)N[C@@H](CCCCN)C(=O)O)[C@@H](C)O)C(C)C; assay = measured: caspase-1, IL-1β; system = mouse A549 xenograft, tumour; setting = intratumoral and intravenous, dose not given; quantity = caspase-1 and IL-1β expression; result = decreased
SMILES = COC1CN([C@H]2CC[C@H]([C@@]3(C)Oc4c(Cl)cc(C(=O)NCc5c(SC)cc(C)[nH]c5=O)c(C)c4O3)CC2)C1; assay = RNA-seq, measured: FHDC1 mouse homolog; system = mouse, HT-1376 xenograft, whole blood; setting = dose not given; scale = reference: vehicle; quantity = log2 fold change; result = 1.1

For quick reference, copied from above:
SMILES = CN1CCC[C@]1(C)/C=C/S(=O)(=O)NC(=O)Nc1c2c(cc3c1CCC3)CCC2; system = human, whole blood ex vivo; setting = 250 mg single dose, 24 h, single ascending dose, together with: LPS and ATP; quantity = IL-18 inhibition; result = 98.7%
SMILES = COC1OC(C)C(OC2OC(C)C(O)C(OC3OC(C)C(OC4OC(C)C(O)C(OC5OC(C)C(OC6OC(C)C(O)C(OC7OC(C)C(OC8OC(C)C(O)C(OC9OC(C)C(OC%10OC(C)C(O)C(OS(=O)(=O)O)C%10OS(=O)(=O)O)C(OS(=O)(=O)O)C9OS(=O)(=O)O)C8OS(=O)(=O)O)C(OS(=O)(=O)O)C7OS(=O)(=O)O)C6OS(=O)(=O)O)C(OS(=O)(=O)O)C5OS(=O)(=O)O)C4OS(=O)(=O)O)C(OS(=O)(=O)O)C3OS(=O)(=O)O)C2OS(=O)(=O)O)C(OS(=O)(=O)O)C1OS(=O)(=O)O (centres unmarked); system = human plasma; setting = 64 µg/mL; quantity = activated partial thromboplastin time; result = 84.3 s and 83.5 s
